Results collected from several papers.
Each line is one published result; not all experiments were run side by side. ± marks the error that the study gave.
DCN1-like protein 1: DCN1-like protein 1 (Homo sapiens, UniProt Q96GG9)
Sequence of UniProt Q96GG9 (whole entry, looked up): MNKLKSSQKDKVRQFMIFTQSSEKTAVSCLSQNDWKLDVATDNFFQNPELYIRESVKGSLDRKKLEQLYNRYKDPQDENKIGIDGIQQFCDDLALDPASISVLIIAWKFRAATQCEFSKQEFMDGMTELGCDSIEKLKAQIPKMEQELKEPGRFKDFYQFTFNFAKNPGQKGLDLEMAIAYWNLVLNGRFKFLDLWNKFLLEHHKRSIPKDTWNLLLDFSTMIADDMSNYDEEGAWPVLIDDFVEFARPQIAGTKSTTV
GLP1R: Glucagon-like peptide 1 receptor (GLP1R, Homo sapiens, UniProt P43220)
Sequence of UniProt P42684 (whole entry, looked up): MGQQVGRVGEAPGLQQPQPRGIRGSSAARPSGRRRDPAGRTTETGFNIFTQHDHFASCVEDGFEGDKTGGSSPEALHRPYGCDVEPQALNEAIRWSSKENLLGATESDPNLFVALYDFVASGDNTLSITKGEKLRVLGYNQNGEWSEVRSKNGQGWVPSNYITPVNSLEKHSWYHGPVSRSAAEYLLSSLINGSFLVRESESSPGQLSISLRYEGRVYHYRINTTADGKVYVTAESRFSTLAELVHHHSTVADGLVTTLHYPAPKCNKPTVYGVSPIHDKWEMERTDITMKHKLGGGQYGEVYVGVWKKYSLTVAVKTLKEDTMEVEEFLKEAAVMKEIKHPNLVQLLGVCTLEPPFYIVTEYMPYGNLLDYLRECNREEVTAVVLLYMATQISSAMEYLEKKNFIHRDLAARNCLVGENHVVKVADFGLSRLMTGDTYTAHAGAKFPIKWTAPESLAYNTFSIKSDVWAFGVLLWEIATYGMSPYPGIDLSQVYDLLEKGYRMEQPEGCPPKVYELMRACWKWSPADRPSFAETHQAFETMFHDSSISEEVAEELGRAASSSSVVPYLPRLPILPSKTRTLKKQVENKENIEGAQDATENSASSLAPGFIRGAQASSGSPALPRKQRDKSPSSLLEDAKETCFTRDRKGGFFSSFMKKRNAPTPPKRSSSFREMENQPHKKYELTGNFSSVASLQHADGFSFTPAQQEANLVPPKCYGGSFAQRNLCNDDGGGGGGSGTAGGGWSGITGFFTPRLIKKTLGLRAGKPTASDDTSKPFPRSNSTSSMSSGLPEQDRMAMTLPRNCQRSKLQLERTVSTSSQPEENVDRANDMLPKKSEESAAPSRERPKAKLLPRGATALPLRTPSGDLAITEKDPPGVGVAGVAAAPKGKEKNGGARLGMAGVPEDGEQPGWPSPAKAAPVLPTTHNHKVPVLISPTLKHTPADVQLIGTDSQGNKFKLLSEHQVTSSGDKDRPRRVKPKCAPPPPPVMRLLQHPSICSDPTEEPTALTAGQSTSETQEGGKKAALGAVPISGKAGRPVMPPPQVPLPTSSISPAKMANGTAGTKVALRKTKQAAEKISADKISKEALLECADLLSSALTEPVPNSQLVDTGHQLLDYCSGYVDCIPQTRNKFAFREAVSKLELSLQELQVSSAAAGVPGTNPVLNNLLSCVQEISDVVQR
Sequence of UniProt P21333 (whole entry, looked up): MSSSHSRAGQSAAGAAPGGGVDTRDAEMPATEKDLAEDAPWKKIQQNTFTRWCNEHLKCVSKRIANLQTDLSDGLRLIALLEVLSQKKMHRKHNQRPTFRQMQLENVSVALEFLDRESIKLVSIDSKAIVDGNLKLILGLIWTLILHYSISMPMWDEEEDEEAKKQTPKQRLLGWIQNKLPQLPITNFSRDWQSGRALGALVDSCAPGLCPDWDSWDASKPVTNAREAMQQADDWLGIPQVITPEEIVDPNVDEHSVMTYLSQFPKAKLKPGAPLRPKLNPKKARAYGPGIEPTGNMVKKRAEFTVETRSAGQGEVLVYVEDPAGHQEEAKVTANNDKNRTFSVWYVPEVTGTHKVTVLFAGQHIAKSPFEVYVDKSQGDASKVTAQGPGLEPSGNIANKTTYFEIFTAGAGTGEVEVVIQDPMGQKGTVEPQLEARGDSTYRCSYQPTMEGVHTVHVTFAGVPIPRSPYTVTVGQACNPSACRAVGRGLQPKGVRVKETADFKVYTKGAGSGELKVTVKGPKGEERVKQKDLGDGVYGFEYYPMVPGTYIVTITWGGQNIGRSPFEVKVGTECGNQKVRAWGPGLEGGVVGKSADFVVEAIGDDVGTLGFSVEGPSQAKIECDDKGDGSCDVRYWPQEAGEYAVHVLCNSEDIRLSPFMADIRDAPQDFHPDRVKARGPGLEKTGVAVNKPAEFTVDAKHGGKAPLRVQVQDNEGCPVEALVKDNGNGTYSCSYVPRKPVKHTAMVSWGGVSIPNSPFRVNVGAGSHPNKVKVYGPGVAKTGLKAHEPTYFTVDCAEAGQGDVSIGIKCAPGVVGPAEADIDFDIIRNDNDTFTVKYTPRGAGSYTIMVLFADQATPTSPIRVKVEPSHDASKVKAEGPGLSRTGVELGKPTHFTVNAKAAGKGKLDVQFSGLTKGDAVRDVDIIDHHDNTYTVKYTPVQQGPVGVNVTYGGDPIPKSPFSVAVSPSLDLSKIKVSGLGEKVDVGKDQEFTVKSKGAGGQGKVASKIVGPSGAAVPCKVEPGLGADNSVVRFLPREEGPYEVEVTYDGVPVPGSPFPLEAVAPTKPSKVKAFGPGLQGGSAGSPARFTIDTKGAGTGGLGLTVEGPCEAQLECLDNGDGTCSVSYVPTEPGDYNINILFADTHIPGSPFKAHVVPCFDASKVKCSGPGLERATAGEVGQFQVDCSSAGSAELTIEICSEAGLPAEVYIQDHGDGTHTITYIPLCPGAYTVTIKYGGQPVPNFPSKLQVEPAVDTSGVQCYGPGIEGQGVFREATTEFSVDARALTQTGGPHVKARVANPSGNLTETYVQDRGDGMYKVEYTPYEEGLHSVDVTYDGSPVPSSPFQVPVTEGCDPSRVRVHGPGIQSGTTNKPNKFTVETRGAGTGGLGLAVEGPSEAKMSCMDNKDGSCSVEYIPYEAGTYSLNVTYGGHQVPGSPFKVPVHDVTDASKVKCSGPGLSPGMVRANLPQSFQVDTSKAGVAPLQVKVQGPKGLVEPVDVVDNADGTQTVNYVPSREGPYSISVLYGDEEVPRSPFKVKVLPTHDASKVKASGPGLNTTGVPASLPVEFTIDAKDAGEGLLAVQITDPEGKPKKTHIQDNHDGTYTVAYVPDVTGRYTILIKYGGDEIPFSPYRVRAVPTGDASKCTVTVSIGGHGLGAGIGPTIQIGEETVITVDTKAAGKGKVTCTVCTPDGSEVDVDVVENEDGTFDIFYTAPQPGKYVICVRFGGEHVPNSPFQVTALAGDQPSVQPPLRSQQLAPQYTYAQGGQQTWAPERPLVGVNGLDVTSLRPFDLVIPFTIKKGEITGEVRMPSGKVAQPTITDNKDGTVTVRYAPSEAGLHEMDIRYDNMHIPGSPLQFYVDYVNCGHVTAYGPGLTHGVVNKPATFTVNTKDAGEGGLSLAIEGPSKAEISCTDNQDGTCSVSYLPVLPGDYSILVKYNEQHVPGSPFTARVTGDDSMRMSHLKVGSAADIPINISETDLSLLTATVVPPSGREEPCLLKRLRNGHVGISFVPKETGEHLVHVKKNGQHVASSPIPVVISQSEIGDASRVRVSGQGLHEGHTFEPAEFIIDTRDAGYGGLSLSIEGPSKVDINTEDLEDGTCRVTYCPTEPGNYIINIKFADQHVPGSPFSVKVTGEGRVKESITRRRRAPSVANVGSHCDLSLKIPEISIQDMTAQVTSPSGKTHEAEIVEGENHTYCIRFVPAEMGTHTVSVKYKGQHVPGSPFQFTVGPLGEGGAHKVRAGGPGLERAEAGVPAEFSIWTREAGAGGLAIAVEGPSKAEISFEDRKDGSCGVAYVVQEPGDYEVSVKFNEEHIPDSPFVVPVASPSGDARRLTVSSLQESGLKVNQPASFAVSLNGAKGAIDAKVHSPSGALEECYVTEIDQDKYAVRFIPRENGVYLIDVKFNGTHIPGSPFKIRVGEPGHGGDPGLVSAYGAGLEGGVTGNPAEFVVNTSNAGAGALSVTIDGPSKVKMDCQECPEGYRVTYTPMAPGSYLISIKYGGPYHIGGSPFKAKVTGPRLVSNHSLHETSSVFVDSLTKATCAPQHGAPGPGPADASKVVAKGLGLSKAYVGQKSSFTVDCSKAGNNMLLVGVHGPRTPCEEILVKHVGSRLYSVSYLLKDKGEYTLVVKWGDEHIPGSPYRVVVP
Sequence of UniProt P25103 (whole entry, looked up): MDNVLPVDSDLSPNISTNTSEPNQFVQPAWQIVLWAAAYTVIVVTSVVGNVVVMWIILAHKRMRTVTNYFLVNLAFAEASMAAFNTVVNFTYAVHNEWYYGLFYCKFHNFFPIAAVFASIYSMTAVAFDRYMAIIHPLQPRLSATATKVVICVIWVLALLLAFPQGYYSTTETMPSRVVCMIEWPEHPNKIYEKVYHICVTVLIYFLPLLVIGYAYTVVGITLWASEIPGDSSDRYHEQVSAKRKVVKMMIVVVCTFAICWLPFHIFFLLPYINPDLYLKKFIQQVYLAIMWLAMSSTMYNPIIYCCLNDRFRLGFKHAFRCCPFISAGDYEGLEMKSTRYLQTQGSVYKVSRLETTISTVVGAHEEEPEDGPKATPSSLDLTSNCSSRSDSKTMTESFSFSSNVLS

| SMILES | tested on | assay | test system | conditions | endpoint | result |
| --- | --- | --- | --- | --- | --- | --- |
| CO[C@H]1C[C@@H]2CC[C@@H](C)[C@@](O)(O2)C(=O)C(=O)N2CCCC[C@H]2C(=O)O[C@H]([C@H](C)C[C@@H]2CC[C@@H](OC(=O)NCCOCCOCCOCCOCCOCCOCCOCCOCCC(=O)N3CCc4cc(Cn5nc(-c6ccc7oc(N)nc7c6)c6c(N)ncnc65)ccc4C3)[C@H](OC)C2)C[C@@H](O)[C@H](C)/C=C(\C)[C@@H](O)[C@@H](OC)C(=O)[C@H](C)C[C@H](C)/C=C/C=C/C=C/1C |  |  | patients with advanced solid tumours | intravenous, 6 mg weekly, any grade | AE leading to dose interruption | 66.7% |
| Cc1csc([C@H]2c3c(C)nn(-c4ccccc4)c3NC(=O)[C@H]2NC(=O)c2cccc(C(F)(F)F)c2)c1 | DCN1-like protein 1 |  |  |  | IC50 | > 15 µM |
| CC[C@H](C)[C@H](NC(=O)[C@H](Cc1ccccc1)NC(=O)[C@H](CCC(=O)O)NC(=O)[C@H](CCCNC(=N)N)NC(=O)[C@H](C)NC(=O)[C@H](C)NC(=O)[C@H](CCC(N)=O)NC(=O)[C@H](CCC(=O)O)NC(=O)[C@H](CCC(=O)O)NC(=O)[C@H](CC(C)C)NC(=O)[C@H](Cc1ccc(O)cc1)NC(=O)[C@H](CO)NC(=O)[C@H](CO)NC(=O)[C@H](CCCCNc1c(NCCCCCN(O)C(=O)CCC(=O)NCCCCCN(O)C(=O)CCC(=O)NCCCCCN(O)C(C)=O)c(=O)c1=O)NC(=O)[C@H](CC(=O)O)NC(=O)[C@H](CO)NC(=O)[C@@H](NC(=O)[C@H](Cc1ccccc1)NC(=O)[C@@H](NC(=O)CNC(=O)[C@H](CCC(=O)O)NC(=O)[C@H](C)NC(=O)CCc1cnc[nH]1)[C@@H](C)O)[C@@H](C)O)C(=O)N[C@@H](C)C(=O)N[C@@H](Cc1c[nH]c2ccccc12)C(=O)N[C@@H](CC(C)C)C(=O)N[C@H](C(=O)N[C@@H](CCCNC(=N)N)C(=O)NCC(=O)N[C@@H](CCCNC(=N)N)C(=O)N[C@@H](CCCCNC(=O)COCCOCCNC(=O)COCCOCCNC(=O)CC[C@H](NC(=O)CCCCCCCCCCCCCCCCC(=O)O)C(=O)O)C(=O)NCC(=O)NCC(=O)N[C@@H](CO)C(=O)N[C@@H](CCCCNc1c(NCCCCCN(O)C(=O)CCC(=O)NCCCCCN(O)C(=O)CCC(=O)NCCCCCN(O)C(C)=O)c(=O)c1=O)C(=O)O)C(C)C | GLP1R | cAMP reporter gene, agonist, CRE luciferase | BHK | with Zr, 1% HSA | EC50 | 0.54 nM |
| CC(C)[C@@H]1NC(=O)[C@H](Cc2ccccc2)NC(=O)[C@@H]2NC(=O)[C@H](Cc3ccccc3)NC(=O)[C@@H]3CCCN3C(=O)CNC(=O)[C@H](Cc3ccccc3)NC(=O)[C@@H]3CNCCCC[C@@H](C(=O)O)NC(=O)[C@@H]4NC(=O)[C@H](CC(N)=O)NC(=O)CNC(=O)[C@H]([C@@H](O)C(=O)O)NC(=O)[C@H](CSC[C@@H](NC(=O)[C@H](CCC(N)=O)NC(=O)[C@H](CCCCNC(=O)c5ccc(NN)nc5)NC(=O)[C@@H](N)CS[C@H]4C)C(=O)N[C@@H](CS[C@H]2C)C(=O)N3)NC1=O [technetium-99m labelled] |  |  | rat, saline control, skin | intravenous, 2 h after tracer, tracer 2 h after reperfusion | tissue uptake | 0.39 ± 0.27 %ID/g |
| COc1cc(Nc2ncc(F)c(Nc3ccc4c(n3)NC(=O)C(C)(C)O4)n2)cc(OC)c1OC | TACR1 (Homo sapiens, UniProt P25103) |  |  |  | IC50 | > 10 µM |
| C[C@@H](O)[C@H](NC(=O)[C@@H]1CSSC[C@H](NC(=O)[C@@H](Cc2ccccc2)NC(=O)CN2CCN(CC(=O)[O-])CCN(CC(=O)[O-])CCN(CC(=O)[O-])CC2)C(=O)N[C@@H](Cc2ccc(O)cc2)C(=O)N[C@H](Cc2c[nH]c3ccccc23)C(=O)N[C@@H](CCCCN)C(=O)N[C@@H]([C@@H](C)O)C(=O)N1)C(=O)O.[177Lu+3] | MEC1 |  |  | 120 min, 37 °C | cell uptake | 2.03% |
| C[C@@H](O)[C@@H](CO)NC(=O)[C@@H](CCCNC(=N)N)NC(=O)[C@@H]1CCCN1C(=O)[C@@H]1CSSC[C@H](NC(=O)[C@H](Cc2ccccc2)NC(=O)CN2CCN(CC(=O)O)CCN(CC(=O)O)CCN(CC(=O)O)CC2)C(=O)N[C@@H](Cc2ccc(O)cc2)C(=O)N[C@@H](Cc2ccccc2)C(=O)N[C@@H](CCC(N)=O)C(=O)N[C@@H](CC(N)=O)C(=O)N1 [gallium-68 labelled] |  |  | healthy Wistar rat, heart | intravenous, 8 MBq, 60 min, individual animals | tissue uptake | 0.24 %ID/g |
| CC[C@H](C)[C@H](NC(=O)[C@H](Cc1ccccc1)NC(=O)[C@H](CCC(=O)O)NC(=O)[C@H](CCCNC(=N)N)NC(=O)[C@H](C)NC(=O)[C@H](C)NC(=O)[C@H](CCC(N)=O)NC(=O)[C@H](CCC(=O)O)NC(=O)[C@H](CCC(=O)O)NC(=O)[C@H](CC(C)C)NC(=O)[C@H](Cc1ccc(O)cc1)NC(=O)[C@H](CO)NC(=O)[C@H](CO)NC(=O)[C@@H](NC(=O)[C@H](CC(=O)O)NC(=O)[C@H](CO)NC(=O)[C@@H](NC(=O)[C@H](Cc1ccccc1)NC(=O)[C@@H](NC(=O)CNC(=O)[C@H](CCC(=O)O)NC(=O)[C@H](C)NC(=O)CCc1cnc[nH]1)[C@@H](C)O)[C@@H](C)O)C(C)C)C(=O)N[C@@H](C)C(=O)N[C@@H](Cc1c[nH]c2ccccc12)C(=O)N[C@@H](CC(C)C)C(=O)N[C@H](C(=O)N[C@@H](CCCNC(=N)N)C(=O)NCC(=O)N[C@@H](CCCNC(=N)N)C(=O)N[C@@H](CCCCNC(=O)COCCOCCNC(=O)COCCOCCNC(=O)CC[C@H](NC(=O)CCCCCCCCCCCCCCCCC(=O)O)C(=O)O)C(=O)NCC(=O)NCC(=O)N[C@@H](CO)C(=O)N[C@@H](CCCCNc1c(NCCCCCN(O)C(=O)CCC(=O)NCCCCCN(O)C(=O)CCC(=O)NCCCCCN(O)C(C)=O)c(=O)c1=O)C(=O)N[C@@H](CCCCNc1c(NCCCCCN(O)C(=O)CCC(=O)NCCCCCN(O)C(=O)CCC(=O)NCCCCCN(O)C(C)=O)c(=O)c1=O)C(=O)O)C(C)C | GLP1R | cAMP reporter gene, agonist, CRE luciferase | BHK | with Zr, 0% HSA | EC50 | 0.0068 nM |
| COCCn1c2nc(=O)n(-c3ccccc3)c(=O)c-2nc2ccccc21 | Genome polyprotein, NS5 methyltransferase domain (pol, Dengue virus type 3, UniProt Q6YMS4) |  |  |  | Kd | 3200 nM |
| CCN1C(=O)[C@@H](NC(=O)c2cc(C(F)(F)F)ccn2)[C@@H](c2ccc(F)cc2)c2c(C)nn(-c3ccccc3)c21 | DCN1-like protein 1 |  |  |  | IC50 | > 15 µM |
| CC[C@H](C)[C@H](NC(=O)[C@H](Cc1ccccc1)NC(=O)[C@H](CCC(=O)O)NC(=O)[C@H](CCCNC(=N)N)NC(=O)[C@H](C)NC(=O)[C@H](C)NC(=O)[C@H](CCC(N)=O)NC(=O)[C@H](CCC(=O)O)NC(=O)[C@H](CCC(=O)O)NC(=O)[C@H](CC(C)C)NC(=O)[C@H](Cc1ccc(O)cc1)NC(=O)[C@H](CO)NC(=O)[C@H](CO)NC(=O)[C@H](CCCCNc1c(NCCCCCN(O)C(=O)CCC(=O)NCCCCCN(O)C(=O)CCC(=O)NCCCCCN(O)C(C)=O)c(=O)c1=O)NC(=O)[C@H](CC(=O)O)NC(=O)[C@H](CO)NC(=O)[C@@H](NC(=O)[C@H](Cc1ccccc1)NC(=O)[C@@H](NC(=O)CNC(=O)[C@H](CCC(=O)O)NC(=O)[C@H](C)NC(=O)CCc1cnc[nH]1)[C@@H](C)O)[C@@H](C)O)C(=O)N[C@@H](C)C(=O)N[C@@H](Cc1c[nH]c2ccccc12)C(=O)N[C@@H](CC(C)C)C(=O)N[C@H](C(=O)N[C@@H](CCCCNc1c(NCCCCCN(O)C(=O)CCC(=O)NCCCCCN(O)C(=O)CCC(=O)NCCCCCN(O)C(C)=O)c(=O)c1=O)C(=O)NCC(=O)N[C@@H](CCCNC(=N)N)C(=O)N[C@@H](CCCCNC(=O)COCCOCCNC(=O)COCCOCCNC(=O)CC[C@H](NC(=O)CCCCCCCCCCCCCCCCC(=O)O)C(=O)O)C(=O)O)C(C)C | GLP1R | cAMP reporter gene, agonist, CRE luciferase | BHK | with Zr, 0% HSA | EC50 | 0.13 nM |
| CSCC[C@H](NC(=O)[C@H](CC(=O)O)NC(=O)c1ccc2c(c1)C(=O)OC21c2ccc(N(C)C)cc2Oc2cc(N(C)C)ccc21)C(=O)N[C@@H](CO)C(=O)N[C@@H](CCCCN)C(=O)N[C@@H](CC(=O)O)C(=O)N[C@@H](CCC(=O)O)C(=O)N[C@@H](CO)C(=O)N[C@H](C(=O)N[C@@H](CC(=O)O)C(=O)N[C@@H](Cc1ccc(OP(=O)(O)O)cc1)C(=O)N[C@H](C(=O)N1CCC[C@H]1C(=O)N[C@@H](CCSC)C(=O)N[C@@H](CC(C)C)C(=O)N[C@@H](CC(=O)O)C(=O)N[C@@H](CCSC)C(=O)N[C@@H](CCCCN)C(=O)N[C@@H](CC(=O)O)C(=O)O)C(C)C)C(C)C | Tyrosine-protein kinase ABL2, SH2 domain (ABL2, Homo sapiens, UniProt P42684) | binding |  |  | Kd | 105 nM |
| C[C@H]1CN(c2n[nH]c3nc(N[C@H]4CC[C@H](NS(=O)(=O)CCC(F)(F)F)CC4)ncc23)CCO1 | Filamin-A (Homo sapiens, UniProt P21333) | biochemical |  |  | IC50 | ≥ 20 µM |

A few entries again:
| SMILES | tested on | assay | test system | conditions | endpoint | result |
| --- | --- | --- | --- | --- | --- | --- |
| CCN1C(=O)[C@@H](NC(=O)c2cc(C(F)(F)F)ccn2)[C@@H](c2ccc(F)cc2)c2c(C)nn(-c3ccccc3)c21 | DCN1-like protein 1 |  |  |  | IC50 | > 15 µM |
